Published values collected from several papers.
Several values in a cell are separate wells, animals, samples, runs or records. ± gives the spread as reported.
Genome polyprotein NS3 helicase domain: Genome polyprotein, NS3 helicase domain (Hepatitis C virus genotype 1b, UniProt Q9WMX2)
Sequence of UniProt Q96P65 (whole entry, looked up): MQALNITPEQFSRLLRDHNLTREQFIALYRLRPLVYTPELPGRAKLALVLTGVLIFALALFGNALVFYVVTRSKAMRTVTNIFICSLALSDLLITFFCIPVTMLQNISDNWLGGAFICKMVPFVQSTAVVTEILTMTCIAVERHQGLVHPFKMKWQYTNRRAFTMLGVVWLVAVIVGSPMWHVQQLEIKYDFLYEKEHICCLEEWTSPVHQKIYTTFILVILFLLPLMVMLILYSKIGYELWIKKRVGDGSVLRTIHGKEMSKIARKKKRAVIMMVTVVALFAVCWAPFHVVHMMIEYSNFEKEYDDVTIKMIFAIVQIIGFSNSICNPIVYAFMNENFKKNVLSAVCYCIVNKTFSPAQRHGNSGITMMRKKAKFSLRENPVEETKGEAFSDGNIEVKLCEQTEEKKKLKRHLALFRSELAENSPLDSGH
Sequence of UniProt P32245 (whole entry, looked up): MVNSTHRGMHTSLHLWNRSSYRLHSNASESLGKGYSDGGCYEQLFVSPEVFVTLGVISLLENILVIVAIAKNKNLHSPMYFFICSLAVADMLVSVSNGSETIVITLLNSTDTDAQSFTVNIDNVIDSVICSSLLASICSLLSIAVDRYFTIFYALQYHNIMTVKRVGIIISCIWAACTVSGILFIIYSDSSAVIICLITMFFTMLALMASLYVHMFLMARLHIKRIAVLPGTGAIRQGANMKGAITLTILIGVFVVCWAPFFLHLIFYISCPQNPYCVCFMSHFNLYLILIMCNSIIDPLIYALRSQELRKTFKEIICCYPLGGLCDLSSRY
Sequence of UniProt Q92633 (whole entry, looked up): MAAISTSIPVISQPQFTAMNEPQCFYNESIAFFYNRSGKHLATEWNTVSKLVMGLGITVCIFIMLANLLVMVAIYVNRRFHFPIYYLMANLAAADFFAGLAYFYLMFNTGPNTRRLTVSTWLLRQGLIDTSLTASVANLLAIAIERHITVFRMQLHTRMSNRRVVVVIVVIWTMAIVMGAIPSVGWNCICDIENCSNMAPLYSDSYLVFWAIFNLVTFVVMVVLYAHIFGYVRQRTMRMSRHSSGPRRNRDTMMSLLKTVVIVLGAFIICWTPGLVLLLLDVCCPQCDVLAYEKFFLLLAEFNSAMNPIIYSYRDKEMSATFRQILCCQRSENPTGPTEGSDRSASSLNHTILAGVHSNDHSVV
Sequence of UniProt P62593 (whole entry, looked up): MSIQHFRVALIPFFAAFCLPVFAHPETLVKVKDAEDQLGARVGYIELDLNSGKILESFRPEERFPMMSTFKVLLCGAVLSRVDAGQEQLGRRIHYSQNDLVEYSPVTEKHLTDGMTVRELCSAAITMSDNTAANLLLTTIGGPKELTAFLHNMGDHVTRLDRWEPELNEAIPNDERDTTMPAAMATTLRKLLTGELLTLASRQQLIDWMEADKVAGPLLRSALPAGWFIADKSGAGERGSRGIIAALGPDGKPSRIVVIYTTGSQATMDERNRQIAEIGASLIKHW
Sequence of UniProt P06493 (whole entry, looked up): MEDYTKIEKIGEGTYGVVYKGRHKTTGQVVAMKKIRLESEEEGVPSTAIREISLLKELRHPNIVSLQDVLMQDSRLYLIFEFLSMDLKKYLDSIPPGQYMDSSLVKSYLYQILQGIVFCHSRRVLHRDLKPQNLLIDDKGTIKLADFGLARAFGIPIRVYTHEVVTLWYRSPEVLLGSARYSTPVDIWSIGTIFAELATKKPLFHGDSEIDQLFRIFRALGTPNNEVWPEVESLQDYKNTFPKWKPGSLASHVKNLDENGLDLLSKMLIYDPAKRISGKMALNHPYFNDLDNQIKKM

For `COc1cc(Nc2ncc(F)c(Nc3ccc4c(n3)NC(=O)C(C)(C)O4)n2)cc(OC)c1OC`, the inhibition was 70% (Serine/threonine-protein kinase N2 (PKN2, Homo sapiens, UniProt Q16513); KINOMEscan; 10 µM).
The inhibition of `CCS(=O)(=O)Nc1cccc(C(=C2CCCCC2)c2cnc[nH]2)c1` is reported as 0% (Genome polyprotein NS3 helicase domain; DNA binding, inhibitor; hepatitis C virus; 100 µM, together with: Cy5-dT15 DNA).
For `CC[C@H](C)[C@H](NC(=O)[C@@H](NC(=O)[C@H](N)Cc1ccccc1)C(C)C)C(=O)N[C@@H](C)C(N)=O`, the inhibition was 69.2% (Amyloid-beta precursor protein (APP, Homo sapiens, UniProt P05067); amyloid-beta aggregation, thioflavin T fluorescence; 0.5 µM, 96 h, together with: 2 µM amyloid-beta).
For `O=c1ccc2ccccc2o1`, the inhibition was 4.37% (L-type calcium channel (dihydropyridine site); radioligand binding; 10 µM).
`FC(F)(F)c1cccc(Nc2nc(NCCOc3ccccc3)nc3[nH]cnc23)c1` has an inhibition of 6% (Cyclin-dependent kinase 1, with cyclin B (CDK1, Homo sapiens, UniProt P06493); Z'-LYTE or Adapta; 5 µM).
`Cl.Cl.c1ccc(CCCN2CCN(CCOC(c3ccccc3)c3ccccc3)CC2)cc1` gave an inhibition of 0% (Genome polyprotein NS3 helicase domain; DNA binding, inhibitor; hepatitis C virus; 100 µM, together with: Cy5-dT15 DNA).
The inhibition of `CC(=O)NC[C@H]1[C@H](O)[C@H](O)[C@@H]2[C@H](O)C[C@@H](CO)N21` is reported as 12% (Spodoptera litura β-N-acetylglucosaminidase; crude enzyme; 0.00157 µM, run 2, together with: p-nitrophenyl GlcNAc).
For `CC(C)[C@H]1CN[C@H](C(=O)O)[C@H]1CC(=O)O`, the inhibition was 1% (Genome polyprotein NS3 helicase domain; DNA binding, inhibitor; hepatitis C virus; 100 µM, together with: Cy5-dT15 DNA).
For `C[C@H](CCC(=O)O)[C@H]1CC[C@H]2[C@@H]3[C@@H](O)C[C@@H]4C[C@H](O)CC[C@]4(C)[C@H]3CC[C@]12C`, the inhibition was > 50% (Gag polyprotein, nucleocapsid protein p7 (gag, Human immunodeficiency virus type 1 group M subtype B, UniProt P04591); NCp7-RNA binding, AlphaScreen; HIV-1; 45 µM).
With `O=C([O-])/C=C/C(O)c1ccc(Cl)cc1.[Na+]` (centres unmarked) the inhibition was 1% (Genome polyprotein NS3 helicase domain; DNA binding, inhibitor; hepatitis C virus; 100 µM, together with: Cy5-dT15 DNA).
The inhibition of `O=C(NCc1ccc(C(F)(F)F)cc1)C1CC2CCC1C2` (centres unmarked) is reported as 27.7 ± 28.1% (Trypanothione synthetase (Leishmania infantum, UniProt A4I2Z3); enzyme activity; 25 µM).
`O=C(Nc1cccnn1)N1CCC(=Cc2cccc(Oc3ccc(C(F)(F)F)cn3)c2)CC1` gave an inhibition of 14% (Delta-type opioid receptor (OPRD1, Homo sapiens, UniProt P41143); radioligand binding, inhibitor; 10 µM, human, together with: [3H]naltrindole).
With `CN1CCN(c2cc(-c3ccncc3)c(-c3ccc4ccccc4c3)nn2)CC1` the inhibition was -16.7% (Lysophosphatidic acid receptor 1 (LPAR1, Homo sapiens, UniProt Q92633); 10 µM).
`O=C(N1CCC2(CC1)C[C@@H](CN1CCCCS1(=O)=O)CCO2)C1(c2ccccc2)CCCC1` gave an inhibition of 0% (Interferon-induced helicase C domain-containing protein 1 (IFIH1, Homo sapiens, UniProt Q9BYX4); ATPase activity; 50 µM).
The inhibition of `Ic1cccc2cnccc12` is reported as 10% (NMDA receptor phencyclidine site (rat); radioligand binding, inhibitor; 10 µM).
`CN(C(=O)n1cnc(-c2ccc[n+]([O-])c2)c1)C1CCCCC1` gave an inhibition of 4% (Melanocortin receptor 4 (MC4R, Homo sapiens, UniProt P32245); binding; 10 µM).
For `C/C(O)=C(\C#N)C(=O)Nc1cc(Br)ccc1Br`, the inhibition was 1% (Genome polyprotein NS3 helicase domain; DNA binding, inhibitor; hepatitis C virus; 100 µM, together with: Cy5-dT15 DNA).
`O=C(O)c1cc[c]([Hg][Cl])cc1`: inhibition “no inhibition” (Beta-lactamase TEM (bla, Escherichia coli, UniProt P62593); inhibitor; concentration not given).
The inhibition of `COC(=O)c1ccc(C(=O)OC)c(NC(=O)CN2CCN(C(=O)COc3ccc4ccccc4c3)CC2)c1` is reported as > 30% (uncharacterized protein (Erigeron canadensis, UniProt A0A8M0FGR5); enzyme activity; 100 mg/L).
With `COc1ccc(N2C(=O)N(c3c(C)cccc3Cl)Cc3cnc(Nc4ccc(C5CCN(C)CC5)cc4OC)nc32)nc1` the inhibition was 3.68% (Inhibitor of nuclear factor kappa-B kinase subunit beta (IKBKB, Homo sapiens, UniProt O14920); kinase activity, inhibitor; 0.5 µM, kinase IKK-BETA).
For `O=C(Nc1cnccc1Cl)N1CCN(Cc2ccc3c(c2)OC(F)(F)O3)CC1`, the inhibition was -1% and -9% (Pyroglutamylated RF-amide peptide receptor (QRFPR, Homo sapiens, UniProt Q96P65); concentration not given).
For `NC(N)=NOCC[C@H](N)C(=O)O.O=S(=O)(O)O`, the inhibition was 2% (Genome polyprotein NS3 helicase domain; DNA binding, inhibitor; hepatitis C virus; 100 µM, together with: Cy5-dT15 DNA).
For `C[C@H](C(=O)N[C@H]1COc2ccccc2[C@@H]1S(C)(=O)=O)c1ccc(F)cc1`, the inhibition was 7% (steroid 5alpha-reductase (rat); Eurofins selectivity panel; 10 µM).
